Published values of several laboratories.
Each numbered part is a random draw from the data of one study; scales do not carry over between parts.
Sequence of UniProt Q9NR09 (whole entry, looked up): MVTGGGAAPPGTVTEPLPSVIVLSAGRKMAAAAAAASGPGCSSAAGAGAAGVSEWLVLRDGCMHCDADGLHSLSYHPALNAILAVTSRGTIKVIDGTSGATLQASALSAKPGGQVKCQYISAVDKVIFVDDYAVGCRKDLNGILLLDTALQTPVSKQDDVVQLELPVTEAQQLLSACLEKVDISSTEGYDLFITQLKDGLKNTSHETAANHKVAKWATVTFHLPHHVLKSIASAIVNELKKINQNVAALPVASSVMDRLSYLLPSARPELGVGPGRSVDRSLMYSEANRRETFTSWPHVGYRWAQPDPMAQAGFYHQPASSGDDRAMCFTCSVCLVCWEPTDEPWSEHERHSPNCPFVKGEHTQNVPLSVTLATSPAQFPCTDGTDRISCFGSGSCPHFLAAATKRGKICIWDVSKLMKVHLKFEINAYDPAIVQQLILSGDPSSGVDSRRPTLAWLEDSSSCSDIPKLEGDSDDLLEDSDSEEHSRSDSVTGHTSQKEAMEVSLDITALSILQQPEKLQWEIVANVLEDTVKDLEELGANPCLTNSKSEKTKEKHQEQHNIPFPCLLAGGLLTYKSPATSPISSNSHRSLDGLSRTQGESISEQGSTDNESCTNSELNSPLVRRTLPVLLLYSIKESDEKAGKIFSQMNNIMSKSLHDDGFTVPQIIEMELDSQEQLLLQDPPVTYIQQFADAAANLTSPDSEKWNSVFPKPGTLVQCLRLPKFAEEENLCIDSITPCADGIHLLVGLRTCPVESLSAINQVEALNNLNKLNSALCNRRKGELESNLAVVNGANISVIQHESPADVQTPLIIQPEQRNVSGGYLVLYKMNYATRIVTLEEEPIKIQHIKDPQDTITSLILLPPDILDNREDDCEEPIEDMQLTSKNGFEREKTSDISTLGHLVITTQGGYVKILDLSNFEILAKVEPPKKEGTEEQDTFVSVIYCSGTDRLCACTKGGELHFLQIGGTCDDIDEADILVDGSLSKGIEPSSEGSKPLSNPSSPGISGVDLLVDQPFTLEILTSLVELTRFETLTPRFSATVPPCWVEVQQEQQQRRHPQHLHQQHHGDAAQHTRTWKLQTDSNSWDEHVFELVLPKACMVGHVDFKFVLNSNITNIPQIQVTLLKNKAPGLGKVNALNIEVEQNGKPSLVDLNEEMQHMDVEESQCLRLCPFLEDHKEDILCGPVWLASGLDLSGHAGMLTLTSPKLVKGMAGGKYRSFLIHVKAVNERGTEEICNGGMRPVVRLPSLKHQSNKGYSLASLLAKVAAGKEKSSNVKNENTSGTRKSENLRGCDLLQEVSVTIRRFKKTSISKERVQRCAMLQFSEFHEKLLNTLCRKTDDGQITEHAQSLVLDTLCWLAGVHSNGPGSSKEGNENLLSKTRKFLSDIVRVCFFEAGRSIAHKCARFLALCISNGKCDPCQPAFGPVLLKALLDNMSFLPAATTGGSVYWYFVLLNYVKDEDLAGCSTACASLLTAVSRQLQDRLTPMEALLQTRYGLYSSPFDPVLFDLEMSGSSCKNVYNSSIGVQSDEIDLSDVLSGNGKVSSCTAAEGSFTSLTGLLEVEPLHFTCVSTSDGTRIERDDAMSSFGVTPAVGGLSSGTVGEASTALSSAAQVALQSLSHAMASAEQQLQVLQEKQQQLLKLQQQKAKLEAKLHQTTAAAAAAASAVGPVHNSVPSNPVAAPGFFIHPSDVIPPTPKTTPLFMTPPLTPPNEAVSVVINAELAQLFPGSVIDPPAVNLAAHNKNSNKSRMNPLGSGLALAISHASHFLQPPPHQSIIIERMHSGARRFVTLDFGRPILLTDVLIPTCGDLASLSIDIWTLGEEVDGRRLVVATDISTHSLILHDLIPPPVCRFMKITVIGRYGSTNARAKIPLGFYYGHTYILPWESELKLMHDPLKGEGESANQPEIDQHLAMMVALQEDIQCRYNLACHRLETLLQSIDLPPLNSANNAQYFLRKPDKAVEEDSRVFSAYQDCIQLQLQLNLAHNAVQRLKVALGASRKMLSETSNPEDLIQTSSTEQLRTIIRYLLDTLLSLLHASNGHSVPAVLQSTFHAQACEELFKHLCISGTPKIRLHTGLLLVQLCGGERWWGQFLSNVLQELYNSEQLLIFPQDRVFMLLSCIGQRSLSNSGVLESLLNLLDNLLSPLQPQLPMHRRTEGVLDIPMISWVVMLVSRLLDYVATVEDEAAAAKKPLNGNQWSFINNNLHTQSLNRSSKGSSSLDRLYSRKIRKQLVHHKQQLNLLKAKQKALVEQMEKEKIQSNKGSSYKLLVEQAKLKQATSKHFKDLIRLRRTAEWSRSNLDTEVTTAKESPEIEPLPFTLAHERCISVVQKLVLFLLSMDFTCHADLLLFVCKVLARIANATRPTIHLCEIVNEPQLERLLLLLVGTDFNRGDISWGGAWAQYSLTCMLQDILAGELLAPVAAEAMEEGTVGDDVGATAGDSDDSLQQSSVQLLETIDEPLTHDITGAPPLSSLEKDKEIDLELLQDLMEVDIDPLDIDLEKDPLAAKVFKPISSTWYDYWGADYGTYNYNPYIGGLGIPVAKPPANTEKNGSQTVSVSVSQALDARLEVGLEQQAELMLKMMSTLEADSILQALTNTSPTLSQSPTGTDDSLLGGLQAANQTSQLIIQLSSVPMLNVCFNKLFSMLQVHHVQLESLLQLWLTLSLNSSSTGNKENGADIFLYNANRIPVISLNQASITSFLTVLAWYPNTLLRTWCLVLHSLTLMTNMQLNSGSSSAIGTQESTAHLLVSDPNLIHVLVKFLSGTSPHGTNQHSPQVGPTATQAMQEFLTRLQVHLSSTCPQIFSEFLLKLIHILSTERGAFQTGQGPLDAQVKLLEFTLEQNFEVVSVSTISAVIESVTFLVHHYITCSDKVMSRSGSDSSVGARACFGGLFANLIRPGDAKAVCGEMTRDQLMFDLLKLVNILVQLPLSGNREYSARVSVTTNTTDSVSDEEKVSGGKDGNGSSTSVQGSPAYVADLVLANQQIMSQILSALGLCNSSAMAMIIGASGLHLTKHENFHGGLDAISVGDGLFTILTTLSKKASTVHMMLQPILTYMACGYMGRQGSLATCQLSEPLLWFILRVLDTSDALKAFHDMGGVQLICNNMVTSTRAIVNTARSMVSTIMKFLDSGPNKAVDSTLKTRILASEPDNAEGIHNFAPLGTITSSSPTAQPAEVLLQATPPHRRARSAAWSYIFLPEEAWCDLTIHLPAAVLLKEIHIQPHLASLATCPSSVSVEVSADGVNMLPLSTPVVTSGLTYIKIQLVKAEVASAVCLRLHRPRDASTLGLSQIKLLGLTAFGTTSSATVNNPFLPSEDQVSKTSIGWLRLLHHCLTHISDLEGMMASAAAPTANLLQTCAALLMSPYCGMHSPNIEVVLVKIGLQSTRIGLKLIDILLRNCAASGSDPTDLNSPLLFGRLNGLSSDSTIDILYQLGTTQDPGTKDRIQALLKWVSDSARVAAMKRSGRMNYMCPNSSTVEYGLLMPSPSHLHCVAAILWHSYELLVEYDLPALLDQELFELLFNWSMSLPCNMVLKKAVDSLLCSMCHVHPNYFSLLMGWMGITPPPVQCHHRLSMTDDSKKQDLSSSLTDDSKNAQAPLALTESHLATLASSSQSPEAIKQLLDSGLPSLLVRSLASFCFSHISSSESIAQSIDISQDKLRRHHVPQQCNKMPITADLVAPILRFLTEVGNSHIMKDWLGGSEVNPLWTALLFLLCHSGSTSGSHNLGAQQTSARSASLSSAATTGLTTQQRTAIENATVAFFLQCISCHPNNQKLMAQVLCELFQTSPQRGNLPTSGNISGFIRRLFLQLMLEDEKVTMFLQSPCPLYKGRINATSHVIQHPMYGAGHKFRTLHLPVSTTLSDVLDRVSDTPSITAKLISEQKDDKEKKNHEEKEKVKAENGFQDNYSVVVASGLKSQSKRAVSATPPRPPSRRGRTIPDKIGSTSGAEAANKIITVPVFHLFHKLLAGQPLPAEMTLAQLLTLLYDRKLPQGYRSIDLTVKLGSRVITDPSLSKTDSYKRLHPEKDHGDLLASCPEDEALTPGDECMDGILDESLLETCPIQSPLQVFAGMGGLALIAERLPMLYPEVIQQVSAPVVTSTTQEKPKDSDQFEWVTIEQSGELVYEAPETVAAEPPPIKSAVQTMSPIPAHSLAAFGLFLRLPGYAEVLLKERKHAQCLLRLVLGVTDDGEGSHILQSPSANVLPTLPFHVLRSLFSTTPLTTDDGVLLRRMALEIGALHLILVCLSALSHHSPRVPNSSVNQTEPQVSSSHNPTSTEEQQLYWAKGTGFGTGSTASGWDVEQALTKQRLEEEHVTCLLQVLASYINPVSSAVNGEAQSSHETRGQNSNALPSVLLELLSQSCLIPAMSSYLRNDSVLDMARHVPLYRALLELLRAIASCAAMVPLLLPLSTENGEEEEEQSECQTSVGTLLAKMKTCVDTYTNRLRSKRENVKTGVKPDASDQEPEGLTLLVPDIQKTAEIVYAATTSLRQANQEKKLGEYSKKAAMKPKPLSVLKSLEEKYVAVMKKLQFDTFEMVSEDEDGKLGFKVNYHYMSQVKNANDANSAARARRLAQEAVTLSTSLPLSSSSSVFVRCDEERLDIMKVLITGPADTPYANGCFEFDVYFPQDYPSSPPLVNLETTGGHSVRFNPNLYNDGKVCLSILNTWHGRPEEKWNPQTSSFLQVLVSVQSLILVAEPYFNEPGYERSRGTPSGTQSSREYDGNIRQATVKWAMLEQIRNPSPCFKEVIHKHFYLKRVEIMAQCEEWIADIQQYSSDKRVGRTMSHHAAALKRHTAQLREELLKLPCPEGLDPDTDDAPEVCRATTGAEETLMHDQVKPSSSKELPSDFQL
Sequence of UniProt Q712K3 (whole entry, looked up): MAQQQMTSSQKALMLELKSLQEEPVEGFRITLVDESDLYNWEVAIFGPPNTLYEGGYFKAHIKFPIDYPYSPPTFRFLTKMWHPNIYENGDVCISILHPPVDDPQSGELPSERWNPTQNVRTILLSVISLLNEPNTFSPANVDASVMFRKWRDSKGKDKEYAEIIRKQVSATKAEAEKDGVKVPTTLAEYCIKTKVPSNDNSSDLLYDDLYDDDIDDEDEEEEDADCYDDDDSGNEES

Set 1
Substance: RNF167 RING domain (UniProt Q9H6Y7)
Technique: yeast two-hybrid
Sample: yeast
Notes: mostly zero background
Relative to: not given
Reading: higher = stronger interaction
Measurement: lacZ reporter activity
UBE2Z UBC core domain (UniProt Q9H832): 0
UBE2O UBC core domain (UniProt Q9C0C9): 0
UBE2C UBC core domain (UniProt O00762): 0
UBE2S UBC core domain (UniProt Q16763): 0
UBE2J2 UBC core domain (UniProt Q8N2K1): 0
BIRC6 UBC core domain (UniProt Q9NR09): 0
UBE2I UBC core domain (UniProt P63279): 0
UBE2T UBC core domain (UniProt Q9NPD8): 0
UBE2M UBC core domain (UniProt P61081): 0
UBE2D1 UBC core domain (UniProt P51668): 13600
UBE2B UBC core domain (UniProt P63146): 0
UBE2J1 UBC core domain (UniProt Q9Y385): 0
UBE2E3 UBC core domain (UniProt Q969T4): 10900
UBE2Q1 UBC core domain (UniProt Q7Z7E8): 0
UBE2G1 UBC core domain (UniProt P62253): 0
UBE2R2 UBC core domain (UniProt Q712K3): 0

Set 2
Target: Histone acetyltransferase KAT6A, winged helix 1, GST fusion (KAT6A, Homo sapiens, UniProt Q92794, residues 1-85)
Technique: protein binding microarray
Molecule type: double-stranded DNA, one strand shown
Sample: in vitro
Concentration: not given
Notes: 8-mer, flanks averaged, mean of 2 arrays, mostly near background
Relative to: not given
Reading: higher = stronger binding
Measurement: E-score
Construct (chain): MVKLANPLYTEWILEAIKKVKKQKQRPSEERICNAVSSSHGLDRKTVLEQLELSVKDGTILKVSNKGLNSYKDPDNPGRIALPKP
CAACCGTG: 0.143
CATGATCA: -0.131
GGGATAGA: -0.00507
GGCCTACC: 0.0896
CCAATGGG: -0.153
ACAGTTGG: -0.0721
ACTTCGGC: 0.138
GAGTGTTA: -0.0849
GAGACGGA: 0.0665
ACAAAAGA: -0.0406
ACCACGCC: 0.149
ACTAGACA: -0.153
ATTGACAG: -0.065
GTAATTTA: 0.077
ATTGCTCG: -0.239
GGCATGCC: 0.326
TCCCATAA: -0.219
ACTTACGG: 0.261
GGAGGAGA: -0.0467
ATCTGATC: -0.0441
AACGACAT: -0.127
AACAGGGG: -0.26
GCGCCACC: 0.298
AGAGATGG: -0.232
CTAGCTGA: -0.215

Set 3
Target: Interferon regulatory factor 7, full length, phosphomimetic (IRF7, Homo sapiens, UniProt Q92985, residues 1-503, S471D/S472D/S475D/S476D/S477D/S483D/S484D/S487D)
Technique: protein-binding microarray
Molecule type: double-stranded DNA, one strand shown
Sample: in vitro
Concentration: 2200 nM top
Notes: 60-bp whole probe
Added: salmon DNA 0.4 mg/ml
Relative to: random background probes
Reading: higher = stronger binding
Measurement: fitted relative affinity
Shared flanks, not repeated: GCCTAGCAC … GTCTTGATTCGCTTGACGCTGCTG
Target sequence (chain): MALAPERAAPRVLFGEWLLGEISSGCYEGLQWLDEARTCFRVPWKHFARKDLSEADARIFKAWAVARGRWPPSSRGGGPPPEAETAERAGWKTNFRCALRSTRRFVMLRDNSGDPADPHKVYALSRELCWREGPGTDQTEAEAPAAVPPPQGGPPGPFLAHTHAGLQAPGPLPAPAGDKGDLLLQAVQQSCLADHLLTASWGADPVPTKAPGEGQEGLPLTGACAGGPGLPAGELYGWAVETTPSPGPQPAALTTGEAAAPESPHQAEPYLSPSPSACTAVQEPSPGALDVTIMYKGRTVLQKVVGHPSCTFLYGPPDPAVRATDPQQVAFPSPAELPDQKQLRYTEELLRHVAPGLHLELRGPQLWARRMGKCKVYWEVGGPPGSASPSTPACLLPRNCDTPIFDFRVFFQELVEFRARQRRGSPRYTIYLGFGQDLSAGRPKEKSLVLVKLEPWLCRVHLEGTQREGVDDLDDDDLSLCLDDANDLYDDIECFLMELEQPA
TTAGGTTTCCTACTGCTTAAGTGCTAG: 1.09 z-score
GACGGTTTCGATACTGGGGACGTGCTA: 4.73 z-score
GACGATCTCAGACTGGAGACGTGCTAG: 0.00102 z-score
TCACATCTCCAAAGTCAGACTGTGCTA: 1.15 z-score
GCCATTATGAGTCTTGAAGAGTGCTAG: 0.178 z-score
TTAGGTATCGGGACTGTGTTAGTGCTA: 0.11 z-score
TTAGGTATCCTACTGCCTTAGTGCTAG: 0.572 z-score
GACGGTATCGGGTATCGGCACGTGCTA: -0.111 z-score
TTAGAACCGAGTATCGATTAGTGCTAG: -0.0252 z-score
AACGGTCTCCTACTGCTGACGTGCTAG: 0.754 z-score
TTAGGTTTCGGTTTCGGTTCGTGCTAG: 19.5 z-score
TTAGGTTTCGGTTCGGGTTAGTGCTAG: 13.1 z-score
TTAGGAGTGGGGACTGGGTTAGTGCTA: -0.678 z-score
TTAGGAATGGGTCTCGGTTAGTGCTAG: -0.0705 z-score
TCATAAGCAAAAATGATACTGTGCTAG: -0.647 z-score
GACGGACTGCTCCTCCTGACGTGCTAG: 0.353 z-score
TTTACTTTCTACGTCTGATTGTGCTAG: 4.42 z-score
GACGGTTTCGTACTGCTGACGTGCTAG: 4.3 z-score
TTCTACTTCTCTTTTGGCTTGTGCTAG: 2.78 z-score
GACGGTATCGACTCTGGGGACGTGCTA: -0.191 z-score
TTTTTTCTACTTCTCTTTTGGTGCTAG: 4.97 z-score
GACGGTATCAGGTATCGGGACGTGCTA: -0.201 z-score
TTAGATATCCGTATCGATTAGTGCTAG: 0.56 z-score

Set 4
Target: RNA binding protein fox-1 homolog 2, RRM domain, GST-SBP tag (RBFOX2, Homo sapiens, UniProt O43251-10, residues 100-194)
Technique: RNA Bind-n-Seq
Molecule type: RNA
Sample: in vitro
Concentration: 365 nM
Notes: natural RNA segment, single round, ends assumed
Relative to: no-protein control
Reading: higher = stronger binding
Measurement: RBNS enrichment (R)
Shared flanks, not repeated: GGGAGUUCUACAGUCCGACGAUC … UGGAAUUCUCGGGUGCCAA
Target sequence (chain): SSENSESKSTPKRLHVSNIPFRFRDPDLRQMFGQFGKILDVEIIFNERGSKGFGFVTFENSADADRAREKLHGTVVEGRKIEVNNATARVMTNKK
GUGUGACUAAUACAUGUUCUACGAGUUAACUACUUUGGCAGUUUUAAUCAUUUCUUCUUUGUUUUGUGGUAAAGGGGAAAAAUUAAAAACCAGUUGGAACCCUUUUGUCU: 0.385
GAUAAUGGCUUUUUGAAAUUGAGGGGGAAAAAUUGGAGCAUCUGUAAACAGAAAUGCCAAAUUAUUGAUAGUCAUCGUUGCUGCUUCACAUUAGUAUGAGACUGAUGCAG: 2.42
GAAUUAUCUCAAGUAAAACAGUGAAAUAAAGUUAUAAAAUAAAAUUACAAGAUUUGGCAGCCAUGAUAAUAGGUCAUAUGUUGUAUUUCGUUUGAUUUUUUUUCUGUAAA: 0.839
GUCAUUUGUUUUUGUUUUAAGUGCUUUUGGGAUUUUAAACUGAUAGCCUCAAACUCCAAACACCAUAGGUAGGACACGAAGCUUAUCUGUGAUUCAAAACAAAGGAGAUA: 0.413
UUCAAACCAGAAGACAUUUGUGGAUAAAUCUGAACUCACUUCCUGUGUGUAACUUCUAACUUCACUGGUUCCUCCCAUCUGAAUUGGCCACAUGCUUGCUGAAGAGACUU: 0.676
UGUAAGAAUGUGAAUUUGAAUGUAUUUUGAAUUGUAAGAGCAAAAGAACGUUUUUGUACAAUUUUUUUUCAUUUAAUUGGAAUGAUCUUCAGGUUUCUACAAAUAGGGUA: 0.586
UUUGUGUGUUGUAUGGUCAAUAACAUUUUUCAUUACUGAUGGUGUCAUUCACCCAUUAGGUAAACAUUCCCUUUUAAAUGUUUGUUUGUUUUUUGAGACAGGAUCUCACU: 0.484
ACUUUAUGAAGGGGCGUUUUUAAGUUGUUUAGCAGUGACAUUUAAUAUGGUCCAAUUGCUUUUCUUUUUAACAUGACAAACAAUUUUAAAAGAGACUAAGGAACAAACAC: 0.244
AGAAGCCUAGAUAACUAAUCUGCUUUUAAUCACGAUGUUUUAAUCUACCUCUGUCUCUUUAACCAUGCUGUCUCUGGACUGAGCAAGAGGGAGGAGGGAGCCUGCUCACC: 0.255
GUAAAUAUUCUGCCAUAGGAAUACUUCUGUCUACAUGCUUUCUCAUCCAAGAAUUCGUCAUCACGCUGCACAGGCUGCGUCUUUGACGGUGGGUGUUCCAUUUUUAUCCG: 0.246
GAACUCAAGAAAAGAUACGGUGGUUGAUUUCCAUUUUUGCUGAAAUAAUUGUUUUUGACUUUCAUAUGUAAAUUUUUUCUACUGAAAGUGUUUUGCUUUUUAAGAAAAUG: 0.545
ACCAAAUUAUUUUAAGGUGCAUAGCACAAAGAUGUAUGCAAACAACUGUUUUAAAUCAGGUCUGAUAACUGAUUUAAAUAUAAAUAAUACUAGGAACAAGUAGUUUCCAU: 1.18

Some of these lines once more (set 2):
CAACCGTG: 0.143
CATGATCA: -0.131
GGGATAGA: -0.00507
GGCCTACC: 0.0896
CCAATGGG: -0.153
ACAGTTGG: -0.0721
ACTTCGGC: 0.138
GAGTGTTA: -0.0849
GAGACGGA: 0.0665
ACAAAAGA: -0.0406
ACCACGCC: 0.149
ACTAGACA: -0.153
ATTGACAG: -0.065
